Measurements of several laboratories.
Every numbered part comes from another study and shows a few of its results, in no order.

Series 1
Target: Sal-like protein 4, full length isoform B (SALL4, Homo sapiens, UniProt Q9UJQ4-2, residues 1-616)
Technique: universal PBM
Form: double-stranded DNA, one strand shown
Sample: in vitro
Tested at: not given
Setting: 8-mer, flanks averaged, mean of replicates
Reading: higher = stronger binding
`AGTTTAAA` has an E-score of 0.23.
With `GATGTTGA` the E-score was 0.0352.
With `GAGGGAAA` the E-score was 0.0783.
With `CTCGCCGA` the E-score was -0.313.
The E-score of `AGACATAG` is reported as 0.137.
For `CTCATACC`, the E-score was 0.157.
For `CACGTCGG`, the E-score was -0.224.
With `AAGAGGTG` the E-score was -0.0678.
With `ATGCAAGG` the E-score was -0.0061.
`CGCACGGC` gave an E-score of -0.357.
`ATGCTATG` gave an E-score of 0.254.
With `CGGTGATA` the E-score was 0.136.
For `ACGCCCGG`, the E-score was -0.326.
For `AAGAGTCA`, the E-score was 0.114.
`CTTGAGGA` gave an E-score of -0.0846.
`ACATGACA` has an E-score of 0.188.
With `CGAGTGAC` the E-score was -0.241.
For `ATAGAACG`, the E-score was 0.228.
`ACGAGATC` has an E-score of 0.0303.
For `TGAATAAA`, the E-score was 0.244.
With `CGTCAGAG` the E-score was -0.141.
For `CAGTGGCC`, the E-score was -0.278.
With `ATGATGAA` the E-score was 0.283.
With `AATTCATG` the E-score was 0.257.
For `AATGCCAT`, the E-score was 0.146.

Series 2
Target: RNA binding protein fox-1 homolog 2, RRM domain, GST-SBP tag (RBFOX2, Homo sapiens, UniProt O43251-10, residues 100-194)
Technique: RNA Bind-n-Seq
Form: RNA
Sample: in vitro
Tested at: 365 nM
Setting: natural RNA segment, single round, ends assumed
Relative to: no-protein control
Reading: higher = stronger binding
Shared flanks, not repeated: GGGAGUUCUACAGUCCGACGAUC … UGGAAUUCUCGGGUGCCAA
Construct (chain): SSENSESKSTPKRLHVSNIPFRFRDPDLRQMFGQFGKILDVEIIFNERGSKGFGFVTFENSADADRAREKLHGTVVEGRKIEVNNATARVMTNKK
Under “RBNS enrichment (R)”, `GGCUAGAACGAGAGUGCCUCCCCUUCUUGUGUCCUGGCUGGCUGGGAUGCUGGUGGCUCUUCAGAGGAGCAUCAGCUGUCUGUCAUCUGCUGCGAUCCGGCAGCCUCUCU` is recorded as 0.33.
`UGACAUUCUAUCAGCCCAACCCUCAUUCUGCAGGGCCACCUGGUGUGUGGAGGUGGCGGGAGGGGUCAGUGACUCUGGGGGUCUCCUCAGUGACCCCCAUACCUCAUCAU`: “RBNS enrichment (R)” 0.237.
For `AAGGAAUUAUGGGUGGGUAUUUUUUUAAUUGAACUCAUUUUUCGGUUGUCUGACCAUAACAUGAUUUUUUUCUAAGAUGAAAUCCACAGAAGUUCUUAACUGUUAAAAAG`, “RBNS enrichment (R)” read 0.304.
`CUGGAUUUCUCCACUGAAAACCUACUUGAGGUUUCUGGUCUGAAGGCUUAAGAGUCACAUCUUAGCACUUCCGCUCUCAGGCCUCCUCCUCCAUCACAGAUGUCUGGAUG`: “RBNS enrichment (R)” 0.32.
`UUGCUUUUUAUAUUUAACUAGGAUACUUUUAUAUGAUGGGUGCUUUGAGUGUGAAUGCAGCAGGCUCUCUUGUUUCCGAGGUGCUGCUUUUGCAGGUGACCUGGUUACUU`: “RBNS enrichment (R)” 2.12.
For `CUUAUUGUAGUUAGAAAUUGUAACUUUGAUAUCGAAUCUCUUGCCUUCAACAAGCACACUGACAGAGAAAAAAAAAUAUGCUACUGUCUGUUGGUUCCAAUAUUCUCCCA`, “RBNS enrichment (R)” read 0.391.
For `AGUAGCAUAUCCUGUCCUGAAAGUGUGUGUAGUUUUACUUGUUCAACAGAAUGUCCGACAGCAUCCUUUAAAACUUAAAGAGAAAGACAACUUUGCAGAAAGAGACACAG`, “RBNS enrichment (R)” read 0.659.
Under “RBNS enrichment (R)”, `CGACAAGGACCCAGGUCUUCCUGCUGCUGCCAGGGAGAGCAGGGACAGUGCCGCGUGCGAGAUGAGCUCGAACACUGCCCGCCUUACUGCCGCCUACCCCGCCCGCCACG` is recorded as 0.383.
`GCAUUAAACUGGAAUUGACAAGAGUGUUGAGCAUCCCUGUCUAACCUGCUCUUUCUCUUUGGUGCCCCUUAUCUCACCCCUUCCUUGGAAUUUAAUAAGUCUCAGGCAUU`: “RBNS enrichment (R)” 0.578.
For `AUUUGGGUUUCUGAAGUACAAGUAUUGAGCAACAUGAAGGGCAGUGUUGCCCAGCUCAGGGUGUCUGCUUGGUGGCUCUAACCCCUGCCCAUCCAGUUGUUUCUGGGCUG`, “RBNS enrichment (R)” read 0.54.
Under “RBNS enrichment (R)”, `UAUUUAUUUGUAUUGGGUGAUGAUUGAUUCUUUCGACCUAACAUUUUGGGUUUUAACCAAAUAACCGGUCCAGGAGUGAGCAGCUCCGUUCUGUCAGAUGCUACUCCAAA` is recorded as 0.401.
Under “RBNS enrichment (R)”, `AAAAGCAACAGUAGCAGGGAAUUGAUCCACUUCUUAAUGCUUUCCUCCCUGGCAUGACCAUCCUGUCCUUUGUUAUUAUCCUGCAUUUUACGUCUUUGGAGGAACAGCUC` is recorded as 1.72.

Series 3
Target: Histone acetyltransferase KAT6A, both winged helices, GST fusion (KAT6A, Homo sapiens, UniProt Q92794, residues 1-181)
Technique: protein binding microarray
Form: double-stranded DNA, one strand shown
Sample: in vitro
Tested at: not given
Setting: 8-mer, flanks averaged, mean of 2 arrays, mostly near background
Relative to: not given
Reading: higher = stronger binding
Residues (chain): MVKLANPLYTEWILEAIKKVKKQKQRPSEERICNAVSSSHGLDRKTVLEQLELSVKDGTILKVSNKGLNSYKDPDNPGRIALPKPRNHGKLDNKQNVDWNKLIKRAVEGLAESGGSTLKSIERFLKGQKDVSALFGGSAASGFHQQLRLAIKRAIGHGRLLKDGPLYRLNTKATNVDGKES
With `AAATCGGG` the E-score was -0.00522.
`CTATCTAA` gave an E-score of -0.0577.
`TCTCCAGA` gave an E-score of -0.117.
`AGAAGTTG` gave an E-score of -0.246.
For `GACCTTTA`, the E-score was -0.0423.
With `ACTTTCTA` the E-score was -0.0695.
`CAAACTGC` has an E-score of 0.0358.
`CTTATTTA` gave an E-score of -0.105.
For `ATGCCCCA`, the E-score was -0.277.
`ATGATCGA` has an E-score of -0.0851.
With `CTCAGAGA` the E-score was -0.0456.
`AGTGGCAT` gave an E-score of -0.185.
The E-score of `ATGCTTTA` is reported as -0.0644.
`ATTCGCCA` gave an E-score of -0.0609.
`GGGCAGGA` gave an E-score of -0.142.
The E-score of `AGTCCGAT` is reported as 0.0927.
`CAGTCTCG` gave an E-score of -0.0257.
The E-score of `CGAGCGTA` is reported as 0.251.
The E-score of `CCCAATCC` is reported as -0.258.
With `ACCTTCAG` the E-score was -0.127.
For `TCACTACA`, the E-score was -0.0866.
For `CATTCGCA`, the E-score was 0.103.
The E-score of `CATACTTA` is reported as -0.16.
For `GCATAACA`, the E-score was -0.214.
`TTCCCGAA` gave an E-score of 0.0395.

Series 4
Target: Interferon regulatory factor 7, full length, phosphomimetic (IRF7, Homo sapiens, UniProt Q92985, residues 1-503, S471D/S472D/S475D/S476D/S477D/S483D/S484D/S487D)
Technique: protein-binding microarray
Form: double-stranded DNA, one strand shown
Sample: in vitro
Tested at: 2200 nM top
Setting: 60-bp whole probe
With: salmon DNA 0.4 mg/ml
Relative to: random background probes
Reading: higher = stronger binding
Shared flanks, not repeated: GCCTAGCAC … GTCTTGATTCGCTTGACGCTGCTG
Residues (chain): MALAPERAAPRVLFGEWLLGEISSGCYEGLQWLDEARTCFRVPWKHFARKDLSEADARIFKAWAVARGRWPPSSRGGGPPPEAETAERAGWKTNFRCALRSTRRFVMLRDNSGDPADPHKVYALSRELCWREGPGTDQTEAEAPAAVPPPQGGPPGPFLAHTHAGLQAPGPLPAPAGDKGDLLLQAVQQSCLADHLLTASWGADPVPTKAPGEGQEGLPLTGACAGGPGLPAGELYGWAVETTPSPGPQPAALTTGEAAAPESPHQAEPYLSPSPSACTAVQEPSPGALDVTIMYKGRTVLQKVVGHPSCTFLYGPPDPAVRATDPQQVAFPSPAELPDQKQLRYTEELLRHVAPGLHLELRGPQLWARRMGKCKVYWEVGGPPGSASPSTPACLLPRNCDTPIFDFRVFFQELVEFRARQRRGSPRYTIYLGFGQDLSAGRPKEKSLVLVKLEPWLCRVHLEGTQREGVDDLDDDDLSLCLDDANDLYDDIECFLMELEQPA
`GACGAGTTCAGTATCGAGACGTGCTAG` — result for “fitted relative affinity”: 0.272 z-score.
`GACGGTATCGGTATCGGGCCGTGCTAG` — result for “fitted relative affinity”: -0.0134 z-score.
`CTTCTCCTCTAGGTTCTCTGAGTGCTA` — result for “fitted relative affinity”: 1.17 z-score.
Under “fitted relative affinity”, `TTAGATTCCAGTTTCGATTGGTGCTAG` is recorded as 9.42 z-score.
`TTAGATACCAGTCTCGATTAGTGCTAG` — result for “fitted relative affinity”: 0.609 z-score.
`TTAGGTTTCGGTCTCGGTCAGTGCTAG` — result for “fitted relative affinity”: 6.37 z-score.
Under “fitted relative affinity”, `GTCGGTTTCGGGACTGGGGACGTGCTA` is recorded as 4.87 z-score.
`GACGGAGTGGGACTGGGGACGTGCTAG` — result for “fitted relative affinity”: -0.822 z-score.
`GATGGCAGTGGAAATTTTACGTGCTAG`: “fitted relative affinity” -0.296 z-score.
`ATAGGTATCGGTCTCGGTTAGTGCTAG` — result for “fitted relative affinity”: 0.986 z-score.
`TTAGGACTGCGGTATCGGTTAGTGCTA` — result for “fitted relative affinity”: -0.131 z-score.
Under “fitted relative affinity”, `GACAGTATCGACTTTCGGGACGTGCTA` is recorded as 3.47 z-score.
`GACGGTGTCGGGTATCGGGACGTGCTA` — result for “fitted relative affinity”: -0.8 z-score.
`TTAGGTATCGGGACTGGGTTCGTGCTA`: “fitted relative affinity” -0.311 z-score.
Under “fitted relative affinity”, `TTAGATATCGGGTTTAGATTAGTGCTA` is recorded as 0.298 z-score.
For `GACGGTCGCCTACTGCTGACGTGCTAG`, “fitted relative affinity” read -0.248 z-score.
`TCAGATTTTGGTCTTTCACTGTGCTAG`: “fitted relative affinity” 1.19 z-score.
Under “fitted relative affinity”, `GAGGATATCGGGTATCGAGACGTGCTA` is recorded as -0.317 z-score.
`TTAGGTATCCGGTTTCGGTTAGTGCTA` — result for “fitted relative affinity”: 5.56 z-score.
`GAGACTCTAATATTGAGACTGTGCTAG` — result for “fitted relative affinity”: -0.503 z-score.
For `TTAGGTATCGGTTTCAGTTAGTGCTAG`, “fitted relative affinity” read 3.33 z-score.
Under “fitted relative affinity”, `TTGTGTTGCTGTTTGAGGAAGTGCTAG` is recorded as 1.78 z-score.
Under “fitted relative affinity”, `GACCGTTTCCTTATCCTGACGTGCTAG` is recorded as 3.14 z-score.
`TTGGGTCTCCTTATCCTTTAGTGCTAG`: “fitted relative affinity” 0.992 z-score.

A few entries again (series 2):
`UUGCUUUUUAUAUUUAACUAGGAUACUUUUAUAUGAUGGGUGCUUUGAGUGUGAAUGCAGCAGGCUCUCUUGUUUCCGAGGUGCUGCUUUUGCAGGUGACCUGGUUACUU`: “RBNS enrichment (R)” 2.12.
`UGACAUUCUAUCAGCCCAACCCUCAUUCUGCAGGGCCACCUGGUGUGUGGAGGUGGCGGGAGGGGUCAGUGACUCUGGGGGUCUCCUCAGUGACCCCCAUACCUCAUCAU`: “RBNS enrichment (R)” 0.237.
Under “RBNS enrichment (R)”, `AAAAGCAACAGUAGCAGGGAAUUGAUCCACUUCUUAAUGCUUUCCUCCCUGGCAUGACCAUCCUGUCCUUUGUUAUUAUCCUGCAUUUUACGUCUUUGGAGGAACAGCUC` is recorded as 1.72.
Under “RBNS enrichment (R)”, `CGACAAGGACCCAGGUCUUCCUGCUGCUGCCAGGGAGAGCAGGGACAGUGCCGCGUGCGAGAUGAGCUCGAACACUGCCCGCCUUACUGCCGCCUACCCCGCCCGCCACG` is recorded as 0.383.
`GCAUUAAACUGGAAUUGACAAGAGUGUUGAGCAUCCCUGUCUAACCUGCUCUUUCUCUUUGGUGCCCCUUAUCUCACCCCUUCCUUGGAAUUUAAUAAGUCUCAGGCAUU`: “RBNS enrichment (R)” 0.578.
For `CUUAUUGUAGUUAGAAAUUGUAACUUUGAUAUCGAAUCUCUUGCCUUCAACAAGCACACUGACAGAGAAAAAAAAAUAUGCUACUGUCUGUUGGUUCCAAUAUUCUCCCA`, “RBNS enrichment (R)” read 0.391.
